Published values collected from several papers.
Each numbered part is a random draw from the data of one study; scales do not carry over between parts. “And” joins repeats or separate records; there may be more than shown.
UniProt P46098, sequence (whole entry, looked up): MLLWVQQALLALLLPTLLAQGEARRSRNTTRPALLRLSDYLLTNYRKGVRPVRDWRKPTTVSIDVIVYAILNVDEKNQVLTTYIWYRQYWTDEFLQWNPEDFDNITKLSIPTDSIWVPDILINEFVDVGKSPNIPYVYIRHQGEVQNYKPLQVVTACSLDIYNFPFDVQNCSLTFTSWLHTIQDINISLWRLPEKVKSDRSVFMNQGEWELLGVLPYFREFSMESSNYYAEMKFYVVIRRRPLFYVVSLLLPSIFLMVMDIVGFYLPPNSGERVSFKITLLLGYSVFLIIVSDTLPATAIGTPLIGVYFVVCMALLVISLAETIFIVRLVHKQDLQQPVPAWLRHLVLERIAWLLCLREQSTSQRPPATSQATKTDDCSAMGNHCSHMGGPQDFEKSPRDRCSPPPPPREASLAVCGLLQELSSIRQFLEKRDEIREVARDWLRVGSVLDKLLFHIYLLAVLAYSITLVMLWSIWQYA
UniProt P41595, sequence (whole entry, looked up): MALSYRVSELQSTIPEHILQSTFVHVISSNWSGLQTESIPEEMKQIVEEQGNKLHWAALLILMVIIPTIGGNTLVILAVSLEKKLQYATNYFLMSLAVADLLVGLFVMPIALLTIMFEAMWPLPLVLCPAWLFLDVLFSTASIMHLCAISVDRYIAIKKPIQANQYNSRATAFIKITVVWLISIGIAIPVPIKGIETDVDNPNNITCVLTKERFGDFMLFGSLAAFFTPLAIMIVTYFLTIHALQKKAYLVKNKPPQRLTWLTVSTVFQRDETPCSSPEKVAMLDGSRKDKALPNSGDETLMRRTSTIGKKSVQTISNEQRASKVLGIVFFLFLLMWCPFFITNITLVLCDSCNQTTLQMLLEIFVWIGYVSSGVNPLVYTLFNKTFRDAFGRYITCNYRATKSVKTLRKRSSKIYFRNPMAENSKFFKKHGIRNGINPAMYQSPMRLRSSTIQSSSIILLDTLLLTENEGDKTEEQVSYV
UniProt P47898, sequence (whole entry, looked up): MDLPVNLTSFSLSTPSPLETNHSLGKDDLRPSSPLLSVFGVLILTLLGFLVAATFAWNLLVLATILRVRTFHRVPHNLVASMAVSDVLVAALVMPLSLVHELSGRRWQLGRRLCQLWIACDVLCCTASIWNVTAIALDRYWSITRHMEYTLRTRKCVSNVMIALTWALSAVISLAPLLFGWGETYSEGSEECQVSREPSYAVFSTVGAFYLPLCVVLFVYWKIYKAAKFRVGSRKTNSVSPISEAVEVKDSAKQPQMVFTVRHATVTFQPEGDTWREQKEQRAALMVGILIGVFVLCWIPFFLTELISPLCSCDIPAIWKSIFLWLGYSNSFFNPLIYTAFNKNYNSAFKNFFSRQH

Block 1
SMILES: Cc1nccc(COC(=O)N2C[C@@H]3[C@@H](CNC(=O)c4ccc5[nH]nnc5c4)[C@@H]3C2)n1
Observed: binding
Method: radioligand binding
Tested at: 10 µM
target	inhibition
5-hydroxytryptamine receptor 2B (HTR2B, Homo sapiens, UniProt P41595)	27.1%
5-hydroxytryptamine receptor 5A (HTR5A, Homo sapiens, UniProt P47898)	13.2%
5-hydroxytryptamine receptor 3A (HTR3A, Homo sapiens, UniProt P46098)	16.4%

Block 2
Compound: CC(=O)N[C@@H](Cc1c[nH]c2ccccc12)C(=O)N[C@@H](CCC(=O)C=[N+]=[N-])C(=O)OC(C)C
Route: subcutaneous
Dose: 0.3 mg/kg/day DON equivalent
Time: 5 days
Direction: higher = more metabolite
method	measured	cells	species	medium	metabolite peak area
UPLC-MS/MS metabolomics	fructose	EL4	C57BL/6 CES1-/- mice, EL4 tumour	tumour	2.53e+07 a.u. and 1.87e+07 a.u. and 2.69e+07 a.u. and 8.02e+06 a.u. and 1.41e+07 a.u. and 7.81e+06 a.u.
UPLC-MS/MS	tryptophan		C57BL/6 CES1-/- mice	EL4 tumour	4.14e+08 a.u. and 4.31e+08 a.u. and 4e+08 a.u. and 3.99e+08 a.u. and 4.62e+08 a.u. and 3.11e+08 a.u.
UPLC-MS/MS metabolomics	dimethylglycine	EL4	C57BL/6 CES1-/- mice, EL4 tumour	tumour	6.61e+06 a.u. and 9.07e+06 a.u. and 6.22e+06 a.u. and 6.79e+06 a.u. and 7.65e+06 a.u. and 5.47e+06 a.u.
UPLC-MS/MS	uridine		C57BL/6 CES1-/- mice	EL4 tumour	3.29e+07 a.u. and 9.85e+06 a.u. and 2.9e+07 a.u. and 3.12e+07 a.u. and 2.96e+07 a.u. and 1.35e+07 a.u.
UPLC-MS/MS metabolomics	creatine	EL4	C57BL/6 CES1-/- mice, EL4 tumour	tumour	3.68e+09 a.u. and 3.22e+09 a.u. and 4.6e+09 a.u. and 5.93e+09 a.u. and 5.32e+09 a.u. and 7.46e+09 a.u.
UPLC-MS/MS metabolomics	dihydroxyacetone phosphate	EL4	C57BL/6 CES1-/- mice, EL4 tumour	tumour	2.86e+06 a.u. and 2.75e+06 a.u. and 2.55e+06 a.u. and 1.92e+06 a.u. and 1.84e+06 a.u. and 2.42e+06 a.u.
UPLC-MS/MS metabolomics	fructose 6-phosphate	EL4	C57BL/6 CES1-/- mice, EL4 tumour	tumour	2.42e+07 a.u. and 1.3e+07 a.u. and 1.94e+07 a.u. and 1.83e+07 a.u. and 2.04e+07 a.u. and 1.41e+07 a.u.
UPLC-MS/MS metabolomics	cystathionine	EL4	C57BL/6 CES1-/- mice, EL4 tumour	tumour	1.3e+06 a.u. and 2.47e+06 a.u. and 2.17e+06 a.u. and 1.99e+06 a.u. and 2.4e+06 a.u. and 1.59e+06 a.u.
UPLC-MS/MS	3-indoxyl sulfate		C57BL/6 CES1-/- mice	EL4 tumour	535000 a.u. and 1.29e+06 a.u. and 329000 a.u. and 1.58e+06 a.u. and 243000 a.u. and 865000 a.u.
UPLC-MS/MS metabolomics	equol sulfate	EL4	C57BL/6 CES1-/- mice, EL4 tumour	tumour	78500 a.u. and 114000 a.u. and 111000 a.u. and 92600 a.u. and 143000 a.u.

Block 3
Target: Non-receptor tyrosine-protein kinase TYK2 (TYK2, Homo sapiens, UniProt P29597)
UniProt P29597, sequence (whole entry, looked up): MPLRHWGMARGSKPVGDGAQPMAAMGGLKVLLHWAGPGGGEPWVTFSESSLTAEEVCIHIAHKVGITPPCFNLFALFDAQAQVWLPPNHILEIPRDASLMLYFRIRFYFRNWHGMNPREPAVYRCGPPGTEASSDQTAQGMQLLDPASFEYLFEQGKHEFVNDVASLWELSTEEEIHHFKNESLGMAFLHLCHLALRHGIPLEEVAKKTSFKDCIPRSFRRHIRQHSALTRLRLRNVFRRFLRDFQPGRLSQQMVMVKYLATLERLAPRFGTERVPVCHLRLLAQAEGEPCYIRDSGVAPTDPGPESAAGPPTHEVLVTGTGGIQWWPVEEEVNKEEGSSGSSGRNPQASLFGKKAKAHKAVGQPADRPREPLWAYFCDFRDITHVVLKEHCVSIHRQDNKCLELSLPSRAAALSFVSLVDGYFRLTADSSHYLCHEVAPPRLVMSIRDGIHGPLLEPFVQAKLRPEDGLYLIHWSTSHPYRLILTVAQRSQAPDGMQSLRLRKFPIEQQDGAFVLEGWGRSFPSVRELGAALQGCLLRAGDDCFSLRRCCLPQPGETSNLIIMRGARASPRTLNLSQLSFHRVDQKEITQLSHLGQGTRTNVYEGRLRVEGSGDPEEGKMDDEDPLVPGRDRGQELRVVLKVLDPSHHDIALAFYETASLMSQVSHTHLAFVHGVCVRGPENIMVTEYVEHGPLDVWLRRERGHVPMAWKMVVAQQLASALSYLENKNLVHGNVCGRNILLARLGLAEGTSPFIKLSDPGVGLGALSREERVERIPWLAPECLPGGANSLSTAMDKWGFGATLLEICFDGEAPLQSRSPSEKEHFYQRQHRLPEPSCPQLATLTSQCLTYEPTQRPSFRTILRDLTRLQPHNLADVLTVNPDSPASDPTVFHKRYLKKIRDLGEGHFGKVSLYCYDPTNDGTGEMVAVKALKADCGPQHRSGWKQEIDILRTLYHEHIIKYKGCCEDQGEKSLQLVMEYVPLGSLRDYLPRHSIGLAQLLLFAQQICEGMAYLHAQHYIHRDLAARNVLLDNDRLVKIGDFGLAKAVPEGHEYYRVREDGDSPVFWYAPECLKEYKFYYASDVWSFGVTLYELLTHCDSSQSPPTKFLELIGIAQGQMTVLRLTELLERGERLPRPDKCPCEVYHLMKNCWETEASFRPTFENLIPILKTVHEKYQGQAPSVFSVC
Observed: enzyme activity
Action: inhibitor
Tested at: 0.5 µM
Relative to: control
Structure (SMILES)	remaining activity [%]
CC(C)[C@H](CO)Nc1nc(Nc2cccc(Cl)c2)c2ncn(C(C)C)c2n1	95.2
O=c1cc(N2CCOCC2)oc2c1ccc1ccccc12	111
Cc1nc(Nc2ncc(C(=O)Nc3c(C)cccc3Cl)s2)cc(N2CCN(CCO)CC2)n1	95.6
CC(=O)O/N=C1/C(c2c(O)[nH]c3cc(Br)ccc23)=Nc2ccccc21	81.6
Cn1cc(/C=C2\C(=O)Nc3ccc(S(N)(=O)=O)cc32)c2ccccc21	35
CCOc1cc2ncnc(Nc3cccc(Br)c3)c2cc1OCC	107
Cn1cnc2cc3c(Nc4cccc(Br)c4)ncnc3cc21	112
CC(C)c1nn(-c2c(Cl)cccc2Cl)c2nc(Cc3ccc(OCCO)cc3)[nH]c(=O)c12	111
CS(=O)(=O)CCNCc1ccc(-c2ccc3ncnc(Nc4ccc(OCc5cccc(F)c5)c(Cl)c4)c3c2)o1	95.5
Cc1ccc(NC(=O)c2ccc(CN3CCN(C)CC3)cc2)cc1Nc1nccc(-c2cccnc2)n1	99.9
COc1cc2ncnc(Nc3ccc(OCc4ccccc4)cc3)c2cc1OC	103
CCN1/C(=C/C(C)=O)Sc2ccc(OC)cc21	113
COc1cc2ncc(-c3ccccc3)nc2cc1OC	93.9
CN(C)CCCn1cc(C2=C(c3c[nH]c4ccccc34)C(=O)NC2=O)c2ccccc21	79.3
O=C(Nc1ccc(Cl)cc1)c1ccccc1NCc1ccncc1	92.1
COc1ccc(Cl)cc1NC(=O)Nc1cc(C)nc2ccccc12	99.7
O=C1NC(=O)/C(=C/c2ccc3nccnc3c2)S1	85.2
Nc1[nH]nc2nnc(-c3c(-c4ccccc4)nn4ccccc34)cc12	104
C[S+]([O-])c1ccc(-c2nc(-c3ccncc3)c(-c3ccc(F)cc3)[nH]2)cc1 (stereo not drawn)	102
COc1ccc(-c2cnc3c(-c4ccsc4)cnn3c2)cc1	86.1
COc1cc2ncnc(N3CCN(C(=O)Nc4ccc(Oc5ccccc5)cc4)CC3)c2cc1OC	83.1
CCC(=O)Nc1ccc2ncnc(Nc3cccc(Br)c3)c2c1	90.2

Block 4
Target: Calcium/calmodulin-dependent protein kinase type II subunit alpha (CAMK2A, Homo sapiens, UniProt Q9UQM7)
UniProt Q9UQM7, sequence (whole entry, looked up): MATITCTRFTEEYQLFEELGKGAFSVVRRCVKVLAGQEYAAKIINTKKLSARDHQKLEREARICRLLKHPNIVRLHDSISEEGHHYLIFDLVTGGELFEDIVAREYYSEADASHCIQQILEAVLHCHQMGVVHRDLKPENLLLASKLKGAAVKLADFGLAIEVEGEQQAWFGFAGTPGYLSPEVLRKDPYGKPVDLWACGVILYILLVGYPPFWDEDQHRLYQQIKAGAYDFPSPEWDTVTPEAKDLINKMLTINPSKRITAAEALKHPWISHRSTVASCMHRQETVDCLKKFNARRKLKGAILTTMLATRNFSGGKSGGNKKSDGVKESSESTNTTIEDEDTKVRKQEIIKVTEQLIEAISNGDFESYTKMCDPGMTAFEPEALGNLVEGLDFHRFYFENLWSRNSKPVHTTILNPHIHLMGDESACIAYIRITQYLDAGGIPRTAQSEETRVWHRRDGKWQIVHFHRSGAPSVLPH
Observed: enzyme activity
Action: inhibitor
Tested at: 10 µM
SMILES	inhibition
OC[C@H]1O[C@@H](OC/C=C/c2ccccc2)[C@H](O)[C@@H](O)[C@@H]1O	5%
CC(C)(C)C(=O)OCOC(=O)[C@@H]1N2C(=O)[C@@H](N=CN3CCCCCC3)[C@H]2SC1(C)C	-3%
CC(C)Oc1ccc2c(=O)c(-c3ccccc3)coc2c1	-9%
CN/C(=N\CCSCc1nc[nH]c1C)NC#N	3%
COc1cc2ccc(=O)oc2c(O)c1O	-40%
CCn1cc(C(=O)O)c(=O)c2cc(F)c(N3CCN(C)CC3)cc21	1%
O=C(O)/C=C(\CC(=O)O)C(=O)O	-1%
OCCN1C[C@H](O)[C@@H](O)[C@H](O)[C@H]1CO	-10%
Cc1cn[nH]c1	-2%
CC(C)CC(=O)NCC(=O)O	22%
CCCCCCCCCCCCCC(=O)O	-89%
C/C(=C\C(=O)CC(C)C(=O)O)[C@H]1C[C@H](O)[C@@]2(C)C3=C(C(=O)C[C@]12C)[C@@]1(C)CCC(=O)C(C)(C)[C@@H]1C[C@@H]3O (stereo partly drawn)	2%
NS(=O)(=O)c1cc2c(cc1Cl)NC(C(Cl)Cl)NS2(=O)=O (stereo not drawn)	-9%

For quick reference, copied from above (block 3):
Structure (SMILES)	remaining activity [%]
COc1ccc(-c2cnc3c(-c4ccsc4)cnn3c2)cc1	86.1
CC(=O)O/N=C1/C(c2c(O)[nH]c3cc(Br)ccc23)=Nc2ccccc21	81.6
Cn1cnc2cc3c(Nc4cccc(Br)c4)ncnc3cc21	112
COc1ccc(Cl)cc1NC(=O)Nc1cc(C)nc2ccccc12	99.7
